Measurements of several laboratories.
Compare with care: the assays were run in different laboratories. “And” joins repeats or separate records; there may be more than shown. ± marks the error that the study gave.
EIF4E2: EIF4E2 52-234 (Homo sapiens, UniProt O60573-1)
CDC48A: CDC48A 1-463 (Arabidopsis thaliana, UniProt P54609)
Chain of UniProt P54609 (whole entry, looked up): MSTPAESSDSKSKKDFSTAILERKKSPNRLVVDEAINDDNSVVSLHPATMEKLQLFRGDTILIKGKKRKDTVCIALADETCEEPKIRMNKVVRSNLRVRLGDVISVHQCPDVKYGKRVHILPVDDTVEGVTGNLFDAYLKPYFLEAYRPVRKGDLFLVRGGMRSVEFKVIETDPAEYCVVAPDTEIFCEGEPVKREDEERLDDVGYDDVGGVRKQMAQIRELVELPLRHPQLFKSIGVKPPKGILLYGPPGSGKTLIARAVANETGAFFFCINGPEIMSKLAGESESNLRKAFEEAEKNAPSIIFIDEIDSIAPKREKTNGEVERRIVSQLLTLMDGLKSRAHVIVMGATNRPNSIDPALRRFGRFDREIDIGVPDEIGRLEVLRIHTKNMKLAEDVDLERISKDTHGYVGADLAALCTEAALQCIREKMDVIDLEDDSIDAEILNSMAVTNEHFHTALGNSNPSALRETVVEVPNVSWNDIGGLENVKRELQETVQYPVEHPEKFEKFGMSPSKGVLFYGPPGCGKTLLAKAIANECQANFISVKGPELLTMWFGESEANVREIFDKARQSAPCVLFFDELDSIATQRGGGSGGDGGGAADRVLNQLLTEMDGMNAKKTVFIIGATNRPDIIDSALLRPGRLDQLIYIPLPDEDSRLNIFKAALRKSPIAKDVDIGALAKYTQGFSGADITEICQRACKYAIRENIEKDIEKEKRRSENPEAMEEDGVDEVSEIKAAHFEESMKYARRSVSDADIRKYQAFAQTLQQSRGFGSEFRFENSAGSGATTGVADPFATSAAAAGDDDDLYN
T1: ATRX ADD domain 167-289 K251R/F284Y (Homo sapiens); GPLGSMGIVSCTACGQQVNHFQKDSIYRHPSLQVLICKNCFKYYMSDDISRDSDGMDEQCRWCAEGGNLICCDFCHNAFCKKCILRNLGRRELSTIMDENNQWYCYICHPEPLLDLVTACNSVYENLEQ
B1: GIGYF2 35-105 (Homo sapiens, UniProt Q6Y7W6-1); chain KYKLADYRYGREEMLALFLKDNKIPSDLLDKEFLPILQEEPLPPLALVPFTEEEQRNFSMSVNSAAVLRLT
B2: priC (Escherichia coli, UniProt P23862); sequence looked up; chain MKTALLLEKLEGQLATLRQRCAPVSQFATLSARFDRHLFQTRATTLQACLDEAGDNLAALRHAVEQQQLPQVAWLAEHLAAQLEAIAREASAWSLREWDSAPPKIARWQRKRIQHQDFERRLREMVAERRARLARVTDLVEQQTLHREVEAYEARLARCRHALEKIENRLARLTR
B3: SPP1 161-353 (Saccharomyces cerevisiae, UniProt Q03012); chain DNNIVVKTDDEKEIFDQIVVRDMTLKTLEDDLQEVQEISLPLFKKKLELLEVYLGWLDNVYTEMRKLDDDAASHVECGKEDSKGTKRKKKKNSSRSRARKNICGYCSTYERIPCSVEEFVRDFGSNEEATKIHEVCTKWKCNRHLDWVSTNQEQYLQQIDSLESMQERLQHLIQARKKQLNIQYYEEILRRGL
B4: HERC2 2540-2700 (Homo sapiens, UniProt O95714); chain STGAVVTESQTYKKRADFLSNDDYAVYVRENIQVGMMVRCCRAYEEVCEGDVGKVIKLDRDGLHDLNVQCDWQQKGGTYWVRYIHVELIGYPPPSSSSHIKIGDKVRVKASVTTPKYKWGSVTHQSVGVVKAFSANGKDIIVDFPQQSHWTGLLSEMELVP
B5: mxt 577-640 (Drosophila melanogaster, UniProt Q9VR35); sequence looked up; chain SRVSYDIEHLLYYSMSPHSWTLPTDWQKMQETAPSILRNKDLQDESQRFDGDKYLASIKTAAKR
B6: PUX4 (Arabidopsis thaliana, UniProt Q8RWU7); chain MSSKDKKPSKPSSSRGGIRTLSDLNRRSGPDSDSDSDGPQEYYTGGEKSGMLVQDPSKKDDVDEIFNQARQLGAVEGPLEPPPSSRSFTGTGRLLSGENVPTGNQQPEPVVHNIVFWSNGFTIDDGPLRKLDDPENASFLESIRKSECPKELEPADRRAPVHVNLMRKEEKCPERQKRRVSFQGVGRTLGGSNEGSGSSSPVAPDSAPIPIQTEPAPSQSLVIDETVPTTSIQLRLADGTRLVAKFNHHHTVNDIRGFIDSSRPGASLNYQLQTMGFPPKPLTDLTQTIEEAGLANSVVLQKF
B7: PUX5 301-421 R353A (Arabidopsis thaliana, UniProt Q7Y175); chain KNPFQGVGRTLGASGSGSSSAPQASSAPMNVAPAPSRGLVVDPAAPTTSIQLALADGTRLVSRFNNHHTVRDVRGFIDASRPGGSKEYQLLTMGFPPKQLTELDQTIEQAGIANAVVIQKF
Chain of UniProt P0C0L4 (whole entry, looked up): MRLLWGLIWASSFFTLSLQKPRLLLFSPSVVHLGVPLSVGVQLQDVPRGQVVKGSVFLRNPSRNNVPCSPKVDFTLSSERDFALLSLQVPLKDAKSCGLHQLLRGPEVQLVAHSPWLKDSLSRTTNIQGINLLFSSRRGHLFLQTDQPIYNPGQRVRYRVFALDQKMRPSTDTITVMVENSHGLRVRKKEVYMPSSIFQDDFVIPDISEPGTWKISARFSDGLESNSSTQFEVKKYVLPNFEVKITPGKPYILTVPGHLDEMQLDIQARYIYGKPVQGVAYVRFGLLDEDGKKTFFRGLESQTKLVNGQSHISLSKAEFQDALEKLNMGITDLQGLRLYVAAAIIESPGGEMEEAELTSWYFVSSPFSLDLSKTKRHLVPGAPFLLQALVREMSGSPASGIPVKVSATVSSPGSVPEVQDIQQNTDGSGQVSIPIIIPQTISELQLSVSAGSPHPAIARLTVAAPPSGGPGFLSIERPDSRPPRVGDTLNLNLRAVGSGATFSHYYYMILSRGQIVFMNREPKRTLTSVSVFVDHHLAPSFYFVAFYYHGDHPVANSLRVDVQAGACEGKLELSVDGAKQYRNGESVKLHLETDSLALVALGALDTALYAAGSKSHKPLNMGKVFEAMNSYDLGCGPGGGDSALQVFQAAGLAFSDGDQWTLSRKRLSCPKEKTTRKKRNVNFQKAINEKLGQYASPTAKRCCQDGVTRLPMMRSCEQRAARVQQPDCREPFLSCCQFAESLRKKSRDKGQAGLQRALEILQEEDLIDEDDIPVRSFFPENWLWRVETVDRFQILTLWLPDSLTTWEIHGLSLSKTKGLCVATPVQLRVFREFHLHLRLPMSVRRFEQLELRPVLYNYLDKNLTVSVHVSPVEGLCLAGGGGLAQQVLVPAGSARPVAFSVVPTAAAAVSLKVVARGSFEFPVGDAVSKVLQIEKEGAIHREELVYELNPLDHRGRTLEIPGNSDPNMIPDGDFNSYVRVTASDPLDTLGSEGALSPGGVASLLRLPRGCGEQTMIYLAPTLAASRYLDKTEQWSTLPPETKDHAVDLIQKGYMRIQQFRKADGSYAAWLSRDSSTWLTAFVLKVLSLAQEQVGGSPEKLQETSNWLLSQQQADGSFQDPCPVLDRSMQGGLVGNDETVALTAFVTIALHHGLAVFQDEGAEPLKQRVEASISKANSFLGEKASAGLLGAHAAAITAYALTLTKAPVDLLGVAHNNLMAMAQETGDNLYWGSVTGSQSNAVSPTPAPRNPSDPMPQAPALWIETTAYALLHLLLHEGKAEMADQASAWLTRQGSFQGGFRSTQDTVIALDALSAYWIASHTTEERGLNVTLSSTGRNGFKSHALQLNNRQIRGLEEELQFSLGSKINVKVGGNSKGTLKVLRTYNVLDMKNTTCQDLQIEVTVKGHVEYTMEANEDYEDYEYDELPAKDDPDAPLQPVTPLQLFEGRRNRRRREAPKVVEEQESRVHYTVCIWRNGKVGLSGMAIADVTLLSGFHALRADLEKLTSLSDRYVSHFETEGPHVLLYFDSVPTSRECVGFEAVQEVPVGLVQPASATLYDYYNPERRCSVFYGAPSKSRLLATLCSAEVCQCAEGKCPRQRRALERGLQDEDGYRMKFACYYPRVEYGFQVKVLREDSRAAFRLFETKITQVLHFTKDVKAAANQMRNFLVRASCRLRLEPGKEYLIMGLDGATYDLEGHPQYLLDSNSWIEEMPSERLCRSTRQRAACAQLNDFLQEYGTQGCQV
Chain of UniProt Q09822 (whole entry, unmodified, looked up): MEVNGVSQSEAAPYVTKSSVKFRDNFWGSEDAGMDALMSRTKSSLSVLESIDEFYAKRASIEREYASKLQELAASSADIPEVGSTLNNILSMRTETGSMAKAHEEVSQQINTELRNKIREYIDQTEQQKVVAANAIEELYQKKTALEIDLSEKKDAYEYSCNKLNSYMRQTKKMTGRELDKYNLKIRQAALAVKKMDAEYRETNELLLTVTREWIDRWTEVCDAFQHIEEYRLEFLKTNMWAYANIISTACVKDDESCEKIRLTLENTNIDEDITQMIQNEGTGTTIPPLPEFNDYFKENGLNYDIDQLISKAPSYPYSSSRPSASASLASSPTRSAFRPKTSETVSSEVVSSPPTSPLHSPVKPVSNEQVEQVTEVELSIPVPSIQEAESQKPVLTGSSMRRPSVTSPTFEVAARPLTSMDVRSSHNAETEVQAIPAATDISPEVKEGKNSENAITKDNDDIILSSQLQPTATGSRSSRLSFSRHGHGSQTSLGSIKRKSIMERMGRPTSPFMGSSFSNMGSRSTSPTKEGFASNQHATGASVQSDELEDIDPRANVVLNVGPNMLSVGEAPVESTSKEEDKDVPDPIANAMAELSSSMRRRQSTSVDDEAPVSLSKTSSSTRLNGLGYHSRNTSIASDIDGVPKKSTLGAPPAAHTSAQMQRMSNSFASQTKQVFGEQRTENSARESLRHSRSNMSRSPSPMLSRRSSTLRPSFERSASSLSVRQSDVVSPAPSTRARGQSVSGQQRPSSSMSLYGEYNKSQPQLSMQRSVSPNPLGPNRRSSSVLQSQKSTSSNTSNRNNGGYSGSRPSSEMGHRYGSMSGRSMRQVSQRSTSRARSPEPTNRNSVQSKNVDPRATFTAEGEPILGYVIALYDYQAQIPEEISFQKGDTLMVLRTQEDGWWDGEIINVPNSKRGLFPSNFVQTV
Chain of UniProt P09980 (whole entry, looked up): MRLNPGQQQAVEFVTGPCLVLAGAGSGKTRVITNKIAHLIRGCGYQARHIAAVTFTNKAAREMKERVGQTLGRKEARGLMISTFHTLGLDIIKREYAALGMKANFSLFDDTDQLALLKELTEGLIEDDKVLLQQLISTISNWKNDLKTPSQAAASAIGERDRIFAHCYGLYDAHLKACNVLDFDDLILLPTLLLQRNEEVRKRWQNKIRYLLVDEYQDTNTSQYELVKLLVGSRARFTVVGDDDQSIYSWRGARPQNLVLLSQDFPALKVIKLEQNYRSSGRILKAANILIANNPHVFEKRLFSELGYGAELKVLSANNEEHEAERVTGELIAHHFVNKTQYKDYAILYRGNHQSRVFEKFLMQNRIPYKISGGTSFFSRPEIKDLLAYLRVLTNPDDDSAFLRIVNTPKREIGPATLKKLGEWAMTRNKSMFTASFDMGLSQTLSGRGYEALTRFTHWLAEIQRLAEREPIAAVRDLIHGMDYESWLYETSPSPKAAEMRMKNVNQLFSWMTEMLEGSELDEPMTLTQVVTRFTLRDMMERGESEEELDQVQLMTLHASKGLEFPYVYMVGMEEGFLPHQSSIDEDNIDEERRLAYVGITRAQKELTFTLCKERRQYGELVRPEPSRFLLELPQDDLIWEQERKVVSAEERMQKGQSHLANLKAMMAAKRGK
Chain of UniProt Q13772 (whole entry, looked up): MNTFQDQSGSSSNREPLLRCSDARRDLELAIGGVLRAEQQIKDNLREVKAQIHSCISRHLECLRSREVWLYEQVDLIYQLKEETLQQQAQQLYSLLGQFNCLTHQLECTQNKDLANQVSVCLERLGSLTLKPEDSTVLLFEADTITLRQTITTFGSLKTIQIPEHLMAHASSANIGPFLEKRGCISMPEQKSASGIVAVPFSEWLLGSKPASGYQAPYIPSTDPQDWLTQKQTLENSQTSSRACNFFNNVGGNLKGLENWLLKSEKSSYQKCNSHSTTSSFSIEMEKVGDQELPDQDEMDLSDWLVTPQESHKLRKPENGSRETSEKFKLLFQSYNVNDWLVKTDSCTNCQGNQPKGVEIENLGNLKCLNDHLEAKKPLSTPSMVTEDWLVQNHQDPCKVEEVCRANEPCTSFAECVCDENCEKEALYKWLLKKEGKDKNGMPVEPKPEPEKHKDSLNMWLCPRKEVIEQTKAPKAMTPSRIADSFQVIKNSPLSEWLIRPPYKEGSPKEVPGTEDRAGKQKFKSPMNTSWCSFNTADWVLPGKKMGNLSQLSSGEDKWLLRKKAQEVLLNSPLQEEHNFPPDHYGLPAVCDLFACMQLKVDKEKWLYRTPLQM
Chain of UniProt P21651 (whole entry, looked up): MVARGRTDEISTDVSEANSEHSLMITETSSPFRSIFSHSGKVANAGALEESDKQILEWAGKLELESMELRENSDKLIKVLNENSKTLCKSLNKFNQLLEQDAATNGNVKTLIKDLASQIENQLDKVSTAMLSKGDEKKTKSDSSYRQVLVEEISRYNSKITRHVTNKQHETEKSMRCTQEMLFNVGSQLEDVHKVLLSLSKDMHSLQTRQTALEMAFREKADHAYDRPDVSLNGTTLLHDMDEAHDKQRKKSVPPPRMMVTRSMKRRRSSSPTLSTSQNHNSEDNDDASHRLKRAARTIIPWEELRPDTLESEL

Molecule | tested on | assay | test system | setting | how to read | endpoint | result
B1 (GIGYF2 35-105) | EIF4E2 | ITC | peptide |  |  | molecule per partner | 1 ± 0.01
B2 (priC) | rep (Escherichia coli, UniProt P09980) | AUC |  |  |  | molecule per partner | 2
CHD1 fragment (Saccharomyces cerevisiae) | nucleosome (Xenopus laevis) | EMSA |  |  |  | molecule per partner | 2 Chd1:nucleosome
C4b (Homo sapiens, UniProt P0C0L4) | C4BP/PROS1 mature (human) | atomic force microscopy, high-speed |  |  |  | molecule per partner | 3 C4b per C4BP and 1 C4b per C4BP and 2 C4b per C4BP
B3 (SPP1 161-353) | REC107 41-224 (Saccharomyces cerevisiae, UniProt P21651) | SEC-SAXS |  |  |  | molecule per partner | 2 per Mer2 tetramer
B4 (HERC2 2540-2700) | NCOA4 383-442, 2Fe-2S cluster bound (UniProt Q13772) | AUC |  |  |  | molecule per partner | 1
GSGAGKESYV | human SCRIB PDZ3-4 tandem (MBP fusion) | automated holdup | peptide, crude extract | concentration not given, corrected by standard peak, unit not given | relative to: biotin control resin, higher = stronger binding | binding intensity | 0.755
CER6 (Zea mays, UniProt B4G0N2) | GL2 (Zea mays, UniProt A0A804MAL4) | cryo-EM |  |  |  | molecule per partner | 1 2:2
NRVDSKETEC | human SCRIB PDZ3-4 tandem (MBP fusion) | automated holdup | peptide, crude extract | concentration not given, uncorrected, unit not given | relative to: biotin control resin, higher = stronger binding | binding intensity | 0.715
PUX7 (Arabidopsis thaliana, UniProt Q94JZ8) | CDC48A | ITC |  | 10 °C |  | molecule per partner | 1.1 ± 0.1
calmodulin (Spodoptera frugiperda) | stra6 (Danio rerio, UniProt F1RAX4) | SEC with light scattering |  | in detergent |  | molecule per partner | 1
ARTKQTARKS (H3C1 1-10) | T1, ATRX ADD domain 167-289 K251R/F284Y (Homo sapiens) | ITC | peptide |  |  | molecule per partner | 1.08
TRIIYDRKFLMECRNSPVTKTPPRDLPTIPGVTS (EIF4EBP1 50-83 (Homo sapiens, UniProt Q13541)) | EIF4E2 52-234 S99N (Homo sapiens, UniProt O60573-1) | ITC | peptide |  |  | molecule per partner | 1.01 ± 0.01
ARTKQTARKSTG (histone H3 peptide 1-12; K4me1) | PHD tandem finger domain 364-473 (Physcomitrium patens, UniProt A0A2K1L966) | ITC | peptide |  |  | molecule per partner | 0.83
B5 (mxt 577-640) | eIF4E1 69-248 (Drosophila melanogaster, UniProt P48598-2) | ITC |  |  |  | molecule per partner | 1 ± 0.03
TPTPSARRTIGPRAPKSKTTY (Cdc12 residues 20-40 (Schizosaccharomyces pombe)) | cdc15 19-312 E30K/E152K (Schizosaccharomyces pombe, UniProt Q09822) | ITC | peptide |  |  | molecule per partner | 0.5 and 0.52 and 0.49 and 0.55
ARTKQTARKSTGGKAY (H3C1 1-15; K4me2) | T1, ATRX ADD domain 167-289 K251R/F284Y (Homo sapiens) | ITC | peptide |  |  | molecule per partner | 1.05
B6 (PUX4) | CDC48A | ITC |  | 25 °C |  | molecule per partner | 0.5
KYKLADYRYGREEMLALYVK (GIGYF1 33-52 (Homo sapiens, UniProt O75420)) | EIF4E2 | ITC | peptide |  |  | molecule per partner | 1 ± 0.01
ARTKQTARKSTGGKA (H3C1 1-15; K9me3) | T1, ATRX ADD domain 167-289 K251R/F284Y (Homo sapiens) | ITC | peptide |  |  | molecule per partner | 1.04
PAPALPPKPPKPTT (PIK3R1 303-316 (Homo sapiens)) | FYN 82-144 (Homo sapiens, UniProt P06241) | ITC | peptide |  |  | molecule per partner | 0.9
B7 (PUX5 301-421 R353A) | CDC48A | ITC |  | 25 °C |  | molecule per partner | 1 ± 0.1

A few entries again:
Molecule | tested on | assay | test system | setting | how to read | endpoint | result
PUX7 (Arabidopsis thaliana, UniProt Q94JZ8) | CDC48A | ITC |  | 10 °C |  | molecule per partner | 1.1 ± 0.1
calmodulin (Spodoptera frugiperda) | stra6 (Danio rerio, UniProt F1RAX4) | SEC with light scattering |  | in detergent |  | molecule per partner | 1
ARTKQTARKS (H3C1 1-10) | T1, ATRX ADD domain 167-289 K251R/F284Y (Homo sapiens) | ITC | peptide |  |  | molecule per partner | 1.08
